Experimental data gathered from unrelated publications.
Protocols differ between the studies behind these lines. Converted amounts (≈) assume the structure as drawn.

Structure (SMILES) | organism | test | test system | setting | scale | endpoint | value
O=C(CCC(=O)c1ccccc1)NCCN(CC(=O)Nc1ccc(I)cc1)C(=O)CCc1cn(Cc2ccccc2)nn1 | Bacillus subtilis, Staphylococcus aureus | MIC | including MRSA | up to 512 µg/mL |  | antibacterial activity | inactive
CN(C)c1cc(CNCc2ccc(O)cc2)c(O)c2c1C[C@H]1C[C@H]3[C@H](N(C)C)C(O)=C(C(N)=O)C(=O)[C@@]3(O)C(O)=C1C2=O | Enterococcus faecalis | microbial growth, broth dilution |  |  |  | MIC | 4 mg/L (≈ 6.75 µM)
Cc1c2c(cc3oc(=O)cc(-c4ccc(Cl)cc4)c13)C(=O)c1cccc(O)c1C2=O | Klebsiella aerogenes | microbial growth, disc diffusion |  | 100 µg/disc |  | inhibition zone | 8 mm
CC(C)=CCc1cc2c(cc1O)OCc1c-2oc2c(CC=C(C)C)c(O)ccc12 | Enterococcus faecalis |  | ATCC 29212 | concentration not given |  | antibacterial activity | inactive
CN(C)c1cc(CN2CCCC2)c(O)c2c1C[C@H]1C[C@H]3[C@H](N(C)C)C(O)=C(C(N)=O)C(=O)[C@@]3(O)C(O)=C1C2=O | Enterococcus faecalis | microbial growth, broth dilution |  |  |  | MIC | 2 mg/L (≈ 3.7 µM)
CC1(CCCCCCCCCCCCOCCCOP(=O)(O)CO[C@H](CO)Cn2ccc(N)nc2=O)COC1 | human alphaherpesvirus 2 |  | HFF, G |  | relative to: CC50 over EC50 | selectivity index | > 172
CC(C)(C)NCC(SS(=O)(=O)O)c1ccccc1 (stereo not drawn) | Schistosoma mansoni |  | mice | oral, 600 mg/kg single dose, 15 days post-infection | relative to: vehicle | female worm burden reduction | 89%
Cc1cc2[nH]c(C(=O)NCC3CCCO3)c(CN(C)C)c2s1 (stereo not drawn) | Giardia duodenalis | parasite growth |  | 48 h |  | IC50 | > 10 µM
Oc1c(Br)cc(Br)c2nc3cc(C(F)(F)F)ccc3nc12 | Enterococcus | Calgary Biofilm Device | VRE 700221 | biofilm |  | MBC | 9.38 µM (≈ 3.96 µg/mL)
CN(C)c1cc(CN2CCOCC2)c(O)c2c1C[C@H]1C[C@H]3[C@H](N(C)C)C(O)=C(C(N)=O)C(=O)[C@@]3(O)C(O)=C1C2=O | Enterococcus faecalis |  | JH2-2(pMV158), Tet L efflux |  |  | MIC | 2 mg/L (≈ 3.59 µM)
COc1ccc(CNC(=O)c2[nH]c3cc(C)sc3c2CN2CCOCC2)cc1 | Giardia duodenalis | parasite growth |  | 48 h |  | IC50 | > 10 µM
CC1(CCCCCCCCCCOCCCOP(=O)(O)CO[C@H](CO)Cn2ccc(N)nc2=O)COC1 | human alphaherpesvirus 3 |  | HFF, Ellen |  | relative to: CC50 over EC50 | selectivity index | > 50
CC(C)CNCc1cc(N(C)C)c2c(c1O)C(=O)C1=C(O)[C@]3(O)C(=O)C(C(N)=O)=C(O)[C@@H](N(C)C)[C@@H]3C[C@@H]1C2 | Enterococcus faecalis | microbial growth, broth dilution |  |  |  | MIC | 1 mg/L (≈ 1.84 µM)
COc1cccc(NC(=O)c2[nH]c3cc(C)sc3c2CN2CCCCC2)c1 | Giardia duodenalis | parasite growth |  | 48 h |  | IC50 | > 10 µM
CCOC(=O)C(CC)NC(=O)CN1C(=O)S/C(=C\c2ccc(OC)cc2)C1=O (stereo not drawn) | Leishmania major | parasite growth |  | 72 h, intracellular, amastigote |  | IC50 | > 10 µM
O=c1c(-c2nc3ccccc3s2)cc2c(n1NS(=O)(=O)c1ccc(Cl)cc1)CCCCCC2 | hepatitis C virus |  | Huh7.5, genotype 4 ED-43 replicon |  | relative to: CC50 over IC50 | selectivity index | 2.79
CN(C)c1cc(CNc2ccccc2)c(O)c2c1C[C@H]1C[C@H]3[C@H](N(C)C)C(O)=C(C(N)=O)C(=O)[C@@]3(O)C(O)=C1C2=O | Enterococcus faecalis | microbial growth, broth dilution |  |  |  | MIC | 2 mg/L (≈ 3.55 µM)
COC1C=COC2(C)Oc3c(C)c(O)c4c(c3C2=O)C2=NC3(CCN(CC(C)C)CC3)NC2=C(NC(=O)C(C)=CC=CC(C)C(O)C(C)C(O)C(C)C(OC(=O)c2cccnc2)C1C)C4=O (stereo not drawn) | Mycobacteroides abscessus |  | ATCC 19977 | 1-log kill, replicating cultures |  | MBC | 0.05 µM (≈ 0.0455 µg/mL)

Structure (SMILES) | organism | test | test system | setting | scale | endpoint | value
Cc1cc(O)c2c(c1)C(=O)c1cc3oc(=O)cc(-c4ccc(Cl)cc4)c3c(O)c1C2=O | Klebsiella aerogenes | microbial growth, disc diffusion |  | 100 µg/disc |  | inhibition zone | 10 mm
CCOC(=O)CNC(=O)CN1C(=O)S/C(=C\c2ccc(C)cc2)C1=O | Leishmania major | parasite growth |  | 24 h, intracellular, amastigote |  | IC50 | > 10 µM
CN(C)c1cc(CNCC(N)=O)c(O)c2c1C[C@H]1C[C@H]3[C@H](N(C)C)C(O)=C(C(N)=O)C(=O)[C@@]3(O)C(O)=C1C2=O | Enterococcus faecalis | microbial growth, broth dilution |  |  |  | MIC | 8 mg/L (≈ 14.7 µM)
COc1c2c(cc3oc(=O)cc(-c4ccc(Cl)cc4)c13)C(=O)c1cc(C)cc(O)c1C2=O | Klebsiella aerogenes |  |  | 100 µg/disc |  | inhibition zone diameter | < 8 mm
Oc1ccccc1/C=N/NC(=S)Nc1cc(C(F)(F)F)cc(C(F)(F)F)c1 | Nakaseomyces glabratus |  | ATCC 28226 | 0.5 µg/mL |  | biofilm formation inhibition | ~15%
Nc1ccn(C[C@@H](CO)OCP(=O)(O)OCCCS(=O)(=O)CCCCCCCCCCC2CCC2)c(=O)n1 | human alphaherpesvirus 2 |  | HFF, G |  | relative to: CC50 over EC50 | selectivity index | > 3950
CCOC(=O)C(NC(=O)CN1C(=O)N/C(=C\c2ccc3c(c2)OCO3)C1=O)C(C)C (stereo not drawn) | Leishmania major | parasite growth |  | 72 h, intracellular, amastigote |  | IC50 | > 10 µM
CN(C)c1cc(CNC(C)(C)C)c(O)c2c1C[C@H]1C[C@H]3[C@H](N(C)C)C(O)=C(C(N)=O)C(=O)[C@@]3(O)C(O)=C1C2=O | Enterococcus faecalis | microbial growth, broth dilution |  |  |  | MIC | 8 mg/L (≈ 14.7 µM)
CC/C(=C\c1ccc(OCC(=O)NC(C(=O)N2CCOCC2)c2ccccc2)cc1)[N+](=O)[O-] (stereo not drawn) | Leishmania donovani | parasite growth, MTT |  | 100 µM, 48 h, promastigote |  | inhibition | 78.1%
COCCCNC(=O)c1[nH]c2cc(C)sc2c1CN1CCCCC1 | Giardia duodenalis | parasite growth |  | 48 h |  | IC50 | > 10 µM
CC/C(=C\c1ccc(OCC(=O)NC(C(=O)N2CCSCC2)c2ccccc2)cc1)[N+](=O)[O-] (stereo not drawn) | Leishmania donovani |  | macrophages, intracellular amastigotes | 6.25 µM, 72 h |  | inhibition | 73.4%
CCOC(=O)C(NC(=O)CN1C(=O)/C(=C/c2ccc3c(c2)OCO3)SC1=S)C(C)C (stereo not drawn) | Leishmania major | parasite growth |  | 24 h, intracellular, amastigote |  | IC50 | > 10 µM
CC(C)C[C@H](NC(=O)[C@H](C)NC(=O)[C@H](C)NC(=O)[C@H](CC(N)=O)NC(=O)[C@H](CO)NC(=O)[C@H](CCC(=O)O)NC(=O)[C@H](CCC(=O)O)NC(=O)[C@H](CC(=O)O)NC(=O)[C@H](CCCCN)NC(=O)[C@H](CO)NC(=O)[C@H](CC(=O)O)NC(=O)[C@H](C)NC(=O)[C@@H](Cc1ccc(O)cc1)NC(=O)[C@@H](N)CO)C(=O)N[C@@H](CO)C(=O)N[C@@H](CC(=O)O)C(=O)N[C@@H](Cc1ccccc1)C(=O)N[C@@H](C)C(=O)N[C@@H](CCC(=O)O)C(=O)N[C@@H](CC(=O)O)C(=O)O | Aplysia | feeding network activity, electrophysiology | buccal and cerebral ganglia | concentration not given |  | activity | inactive
Brc1ccc(-c2c[nH]c(-c3ccccn3)n2)cc1 | Schistosoma mansoni |  | mature male and female worms | 10 µM, 96 h |  | worm killing | 0%
Cc1cc2[nH]c(C(=O)NCCCN3CCOCC3)c(CN(C)C)c2s1 | Giardia duodenalis | parasite growth |  | 48 h |  | IC50 | > 10 µM
CCOC(=O)C(CC)NC(=O)CN1C(=O)S/C(=C\c2ccc(C)cc2)C1=O (stereo not drawn) | Leishmania donovani | parasite growth |  | 72 h, intracellular, amastigote |  | IC50 | 0.57 µM
Cc1cc2[nH]c(C(=O)NCc3cccs3)c(CN3CCCCC3)c2s1 | Giardia duodenalis | parasite growth |  | 48 h |  | IC50 | > 10 µM
CC(C)=CCc1cc(-c2coc3cc(O)c(CC=C(C)C)c(O)c3c2=O)ccc1O | Enterococcus faecalis |  | ATCC 29212 | concentration not given |  | antibacterial activity | inactive

Repeated from above:
Structure (SMILES) | organism | test | test system | setting | scale | endpoint | value
CN(C)c1cc(CNC(C)(C)C)c(O)c2c1C[C@H]1C[C@H]3[C@H](N(C)C)C(O)=C(C(N)=O)C(=O)[C@@]3(O)C(O)=C1C2=O | Enterococcus faecalis | microbial growth, broth dilution |  |  |  | MIC | 8 mg/L (≈ 14.7 µM)
O=c1c(-c2nc3ccccc3s2)cc2c(n1NS(=O)(=O)c1ccc(Cl)cc1)CCCCCC2 | hepatitis C virus |  | Huh7.5, genotype 4 ED-43 replicon |  | relative to: CC50 over IC50 | selectivity index | 2.79
COc1ccc(CNC(=O)c2[nH]c3cc(C)sc3c2CN2CCOCC2)cc1 | Giardia duodenalis | parasite growth |  | 48 h |  | IC50 | > 10 µM
CC(C)=CCc1cc(-c2coc3cc(O)c(CC=C(C)C)c(O)c3c2=O)ccc1O | Enterococcus faecalis |  | ATCC 29212 | concentration not given |  | antibacterial activity | inactive
